Experimental data pooled from the literature.
Each numbered part is a random draw from the data of one study; scales do not carry over between parts.

Sample 1
Target: RNA binding protein fox-1 homolog 2, RRM domain, GST-SBP tag (RBFOX2, Homo sapiens, UniProt O43251-10, residues 100-194)
Technique: RNA Bind-n-Seq
Molecule type: RNA
Matrix: in vitro
Tested at: 365 nM
Setting: natural RNA segment, single round, ends assumed
Baseline: no-protein control
Reading: higher = stronger binding
Endpoint: RBNS enrichment (R)
Shared flanks, not repeated: GGGAGUUCUACAGUCCGACGAUC … UGGAAUUCUCGGGUGCCAA
Target sequence (chain): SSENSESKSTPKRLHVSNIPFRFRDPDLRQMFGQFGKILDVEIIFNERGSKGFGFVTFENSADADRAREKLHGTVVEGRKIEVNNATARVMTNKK
AAUGCUUCUAUUUAAAGGGGAAAUAUUUCUACAUGUGCAUAUAGUUUUCCAAGAGUGUACCAUUAACUUGAUUGUUGAUAAUAAAAAGAAAAAGCAAGUCUAAGCAAGUA: 0.672
CCUCAGCACUGAGGAUUCUUGCCCCCUUGUGGUGCCCGCUGCCCCCAACCUUCAGGCUGCCAGAUGCUCCCCUGACAACACCAGGCUACAGGAGCCAGACGCCAGGGCCU: 0.431
CUGCUCUUCUAGAGAUCCUGAGUUCAAUUCCCAGCAACCGCAUGGUGGCUCACAACCAUCUGUAAUGGGAUCUGAUGCCCUCUUCUAGUGUGUCUGAAGACAGUGACAGU: 0.533
CUUCCUGCAUGAUAGGGAGAGACAAGAAAGAAGAAAUGCUAUUCCACAAGGAAUCUCUUAGAGUUUUGCAGCAAACAGGUGGUGCACAGGUCUGGAAGGUCUGGUCUCCC: 9.69
UGUGUUCACGUGGCCCCCGACUCCUCAGCCACAUCAAGUCUCCUAGACCACUGUGGACUCUAAACUGCACUUGUCUCUCUCAUUUCCUUCAAAUAAUGAUCAAUGCUAUU: 0.513
CAGCACCUGAUGCCUUUUGUACUGAGGUAUGUAACUUUCUCCUUAUUUGACAAGUAGAAGUUAACUUACUUGUCAGGGAGGGCAGACGUUUUUUUGUUCUGUUUCGUUUU: 0.295
GACUCUGCUGCCAUCCGUUCUCCCAGUCCCAAGGGUCCACGAUGUACAAAGUCAUUUCGGCCAGUAGGUGUGCAGACCCCUCCCCGCCACGAUCGUCGCUGUGCUUGGUG: 0.691
AGAUGCUCAAAGUCCCUUUUCUGUUUGUUUGUUUAUAGAUGAACUAUCUAUCUUAUUUCAGUACUUCGGCAAGAGAGAACCUAACUGUAUCUUUGAGGCGAUAGUAGAAC: 0.329
ACACAGAGCAGACAAGAAAGAAGAGCCCUUGAAAACAAGGGAAUGAUUUUUGAGUCGUUAUCAAGCUAAGUGGCAAGCGGGAAGCUGAAACUCGUAUAGGUGAACAUUCU: 0.27
UUCAUUUAGUUUUCUUUUUCUUUCUCUUGACUCCUCCUUUUAGGAUGUCCAGAUGUUGUAAAAAAACAAAAACAAAAAACCCAACAGCUGCAGUUCAAUACAACUGCUCU: 0.297
CUACUUGGAAUGUGGAUAAAUGUAAAAAGAAGAAAAGUUAGAAGAGCAAUAUGUUUCCUUCUCUGUAACAGUGUCCUAACAGUGAAAAUCAGAGUUAUUUGUUAAUUUUU: 1.13
AAACCUGAACUUUCAUUGGAUUUUUGUUAAUUUUCCUCAUUUUGAAUUAUGUGCACUACCAUAGCUACAUCAGUUUGAUACAGUAUUGAAAAAUUAUCAGUUAUAUUUUG: 0.514

Sample 2
Target: Centromere-binding protein 1, full length, His-tagged (CBF1, Saccharomyces cerevisiae, UniProt P17106, residues 1-351)
Sequence of UniProt P17106 (whole entry, looked up): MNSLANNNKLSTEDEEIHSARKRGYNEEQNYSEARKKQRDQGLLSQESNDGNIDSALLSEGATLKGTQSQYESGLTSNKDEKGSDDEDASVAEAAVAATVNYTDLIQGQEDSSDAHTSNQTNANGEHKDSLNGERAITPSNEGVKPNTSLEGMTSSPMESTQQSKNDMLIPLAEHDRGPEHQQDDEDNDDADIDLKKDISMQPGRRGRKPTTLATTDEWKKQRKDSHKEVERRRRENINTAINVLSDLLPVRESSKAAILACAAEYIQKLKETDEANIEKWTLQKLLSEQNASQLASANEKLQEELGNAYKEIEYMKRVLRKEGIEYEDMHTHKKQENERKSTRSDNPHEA
Technique: competition protein-binding microarray
Molecule type: double-stranded DNA, one strand shown
Matrix: in vitro
Tested at: 2 µM
Setting: whole 60-bp probe, lowest competitor level
Together with: Pho4 competitor, 0.05 µM
Reading: higher = stronger binding
Endpoint: fluorescence intensity
Shared flanks, not repeated: … GTCTTGATTCGCTTGACGCTGCTG
CATACCCAACCTTGACCCGTGGGTGAAGATATTTGT: 67.5 a.u.
CTTGGCGTTGGTTATTGCGTGCTTTTCAAAAGACTC: 86.1 a.u.
AAATTACTAAGTTTTCACGTGGACTACCCCGTATGA: 741 a.u.
CGGGGTTAAGTTTGAGGGGTGGGTGGCTTGCAGCAG: 77.3 a.u.
AATATTAAAGTTCACAACGTGAAGACCTTCCTTTCT: 91.7 a.u.
ACAAAAGAACATCGGCACGCAATGTTGCTTTGACAA: 60.5 a.u.
CGTCACTTGCCAGGTCACATGGGCAAATGGCCAGCG: 1690 a.u.
AAATTACTAAGTTTTCACGTGTTGTACCCCGTATGA: 1020 a.u.
TGAACGAAAGACCTGCGCATGACAACAAATTTACCG: 188 a.u.
AAACCACAGTACTGTCACACTCTACTACCATCCAGT: 72.9 a.u.
ATTTATTTACCCCATCACGTGCAAAAATTGAACCTG: 6680 a.u.
ACCCTTCAAATGGCACACCTGCAGGCAGAGGCATGG: 67.8 a.u.
CTGTCGAAGAGTAGTCACCTGTTCCAACTAAGATAG: 438 a.u.
TTGGCTACGTCCCTACACGTGTTTTGCGGTCTCGCT: 724 a.u.
ACCCTTACCGGCCTTGACGTGGGTAACAGCGGTAGC: 49.8 a.u.
TGCGCAACAACTTGTCACACAACTTTATGTCTAGAA: 103 a.u.
AAATTACTAAGTTGTCACATTACTTACCCCGTATGA: 125 a.u.
AGTTCCTGCAGGGCCCACGTGGGGATACGGAGGCCC: 453 a.u.

Sample 3
Target: RING finger protein unkempt homolog, zinc fingers 1-6, SBP tag (UNK, Homo sapiens, UniProt Q9C0B0, residues 30-357)
Sequence of UniProt Q9C0B0 (30-357, looked up): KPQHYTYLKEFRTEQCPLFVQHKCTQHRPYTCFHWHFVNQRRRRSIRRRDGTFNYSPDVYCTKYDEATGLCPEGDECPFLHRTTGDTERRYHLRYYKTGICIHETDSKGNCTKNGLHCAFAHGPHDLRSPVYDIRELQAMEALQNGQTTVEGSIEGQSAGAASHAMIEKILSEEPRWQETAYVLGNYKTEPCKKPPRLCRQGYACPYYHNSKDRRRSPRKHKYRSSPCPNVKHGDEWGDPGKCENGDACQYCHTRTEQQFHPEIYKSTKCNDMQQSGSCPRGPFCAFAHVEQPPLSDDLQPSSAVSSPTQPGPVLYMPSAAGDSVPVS
Technique: RNA Bind-n-Seq
Molecule type: RNA
Matrix: in vitro
Tested at: 100 nM
Setting: RNA with constant flanks, vertebrate orthologous sites, ends assumed
Baseline: input RNA pool
Reading: higher = stronger binding
Endpoint: bound/input enrichment
Shared flanks, not repeated: GGGAGUUCUACAGUCCGACGAUC … CAACAGAGGAUUGAGCAUCA
UGUCUUGGUUUGGGGUAGAGGGGAGGGAGGGGCAGGACAGUGUGGAAUCUCUAGGGUGUAUGGGUAGAUAGGCUGCACAGUUAGUUCUAAUUGGGCCUUUAUGUUAAAAAAUCUCUGGGG: 0.785 ratio
AGAAAAUUUUAACCAAGAAUCCGAAGGUAGAAAUACAGGACCUUGGUUAUCUUCCUCACUUAGAAAUAGAUGCACACCUUUGUUCUCUAGAAGAAGGAGAGAGGGACGAGAUGAAUCUUC: 0.939 ratio
AGUUUGUAUGCACAUUAUUCACAUUCCUCUGUUGUGUUUGCAAAAAAAUAAGAAGACAUUUUAGUCUUUUCUAAGGAUUUUCAAUCCAAUUUCUCAUUUGGUUGCAUGAAGUUGCCCUUA: 0.413 ratio
CUCUAGUGCUUAAGAACCAACCUAAAACCAUUAGAAAAAAAAAAAGUUUACAACUUAAUCUAGUUUACAAAGAAGUCUUGUGCUAGAAUACUUUUUUAAAGUAUUUUUUGAAUACCAUUA: 1.09 ratio
GUUAGGUCAUGACCCAUAUAGGUUAGGUCAUGAUGCUUAUAGAUUAGGACAGGACCCUUACAGAUUAGGUCAUGAUCCCUACAGACUAACUCCUGAUCCCUAUAGGAUGUCACCUAGACC: 0.294 ratio
AUUGUAUGUAGAGAAAAAAUUUUCACUAACUACCAUUGUGGAAUUCCCUAGCAAUUUAUUUAGACUUAAUUUUUAAAAUUCAAGCUUACUGUAUUAGGCAUUUUUAGCUCAUAAUUAAAA: 11.7 ratio
UUUGUUUUGCACAUGUGGCAGUGUUUGUAUUGAGGAUCUUCUGAGGAAGAAGGGGUGCUAUAGCAGUGGUGCCUGGGUUCCUGGCCUCCAGUGCCCCCACCACCCCACCUGGCAGCUUUG: 0.408 ratio
GAAAAUGGCUUCUGCUCCAUUAAAAAAGAAGAAGAAUCCCCCAAAUAUAAAACCUCUAAAUAGCUAUUUUUGAAGUUAAAAUGUUUAAAUUUUGUAAAUUAGCUGUUGCUACUACACAAC: 0.647 ratio
CUGUUCUAGGCAAGAUGAUUCAGAAAAUAGAAGUACCAGCUCUUGGAUAUCCUCUUCAUUCAGAAACAGGUGUACACCUCUGUUUUCUAGGAGAAGAAGAGAAGGAAGGGAUGAAUCUGU: 0.364 ratio
CACUGCCAUGGUUGAUGGCUCUGAGCUGAAAAAAGUGCGAUCCAAUUCGCGCAUUUACCAUCGCUACUUUCUCCUUGACGCCGACAUGCAGUCUUUGAGAUGGGAGCCUUCAAAGAAGGA: 0.182 ratio
GCAUUUGCCGCUAUCACCAAAAGCAAACUUCCACUUUUCAAAUUUCAUUCAGAGCCGUUUUAGUGUUUCCUAUUCCCUACCCUUCCCACGACUUUCUCUGAUGAAAUAUCCUGUUCUCCU: 1.44 ratio

Sample 4
Target: Ras GTPase-activating protein-binding protein 1, full length (G3BP1, Homo sapiens, UniProt Q13283)
Sequence of UniProt Q13283 (whole entry, looked up): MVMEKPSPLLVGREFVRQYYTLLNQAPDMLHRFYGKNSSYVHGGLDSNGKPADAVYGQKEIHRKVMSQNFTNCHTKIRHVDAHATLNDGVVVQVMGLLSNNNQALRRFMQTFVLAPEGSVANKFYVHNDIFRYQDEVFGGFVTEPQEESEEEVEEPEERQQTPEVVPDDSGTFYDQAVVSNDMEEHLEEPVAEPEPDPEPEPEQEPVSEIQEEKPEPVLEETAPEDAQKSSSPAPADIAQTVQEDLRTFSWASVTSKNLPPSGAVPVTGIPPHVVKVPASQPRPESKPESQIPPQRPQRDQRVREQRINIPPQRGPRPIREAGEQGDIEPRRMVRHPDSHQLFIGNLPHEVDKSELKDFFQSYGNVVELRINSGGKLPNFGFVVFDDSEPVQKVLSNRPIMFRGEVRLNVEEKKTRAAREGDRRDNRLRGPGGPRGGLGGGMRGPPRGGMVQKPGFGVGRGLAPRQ
Technique: RNA Bind-n-Seq
Molecule type: RNA
Matrix: in vitro
Tested at: 200 nM
Setting: whole 134-nt RNA, ends assumed
Together with: 150 mM KCl
Baseline: input library
Reading: higher = stronger binding
Endpoint: log2 enrichment
Shared flanks, not repeated: GGGAGUUCUACAGUCCGACGAUC … UGGAAUUCUCGGGUGUCAAGG
GUCCUGUGCUACACAUCGUAUGUACCGAAUCAAAUUUAAACCCCCAAACCCCCCCAAAAAAGUAUUAUGUUACGCCGUUCGGAUCUGCAC: -0.213
CUCAAGUCCUGUGCUACACAUCGUAUGUACCGAAUCGGUUUGGUUUGGGUUUGGAAAGUAUUAUGUUACGCCGUUCGGAUCUGCACUUCC: -0.452
CACAGACAACACGCACCCACACAGACACAGAGGGAAGGGGUUGGGAUGGGGACAGGGUGCACAGCAGGUCGGGGUAGGACCCCAGCCCCU: 1.91
CCUGUGCUACACAUCGUAUGUACCGAAUCGGGGUUUUUGGGGAAAAAAAGGGGAAAGGGGAAAGUAUUAUGUUACGCCGUUCGGAUCUGC: 0.307
AGUCCUGUGCUACACAUCGUAUGUACCGAAUCGGGGAGGGGUUUGGGGAAAAAGGGGAAAGUAUUAUGUUACGCCGUUCGGAUCUGCACU: 0.398
AGUCCUGUGCUACACAUCGUAUGUACCGAAUCGGCCCCCGGCCCCCGGGGCCCCCGGAAAGUAUUAUGUUACGCCGUUCGGAUCUGCACU: -0.881
UGGCCCUGGUGGCAUGCGGGGAGGAAGAGGUGGCCUGAUGGAUCGUGGUGGUCCCGGUGGAAUGUUCAGAGGUGGCCGUGGUGGAGACAG: 0.674
AAGUCCUGUGCUACACAUCGUAUGUACCGAAUCGGUUUGGGGUUUGGGGUUUGGGGAAAGUAUUAUGUUACGCCGUUCGGAUCUGCACUU: -0.354
CCUCAAGUCCUGUGCUACACAUCGUAUGUACCGAAUCGGUGGUUUUUGGAGGAAAGUAUUAUGUUACGCCGUUCGGAUCUGCACUUCCAG: 0.0463
CCUGUGCUACACAUCGUAUGUACCGAAUCGGGGAAAAAAGGGAAAAAAGGGAAAAAAGGGGAAAGUAUUAUGUUACGCCGUUCGGAUCUG: -0.465
CAAGUCCUGUGCUACACAUCGUAUGUACCGAAUCGGGGUUUGGUUUGGUUUGGGGAAAGUAUUAUGUUACGCCGUUCGGAUCUGCACUUC: -0.207
UGUGCUACACAUCGUAUGUACCGAAUCGGGGAAAAAAAGGGGAAAAAAAGGGGUUUUUGGGGAAAGUAUUAUGUUACGCCGUUCGGAUCU: -0.177
ACCAUGCAGGUGGGCAUCUUUGGGAAGUGGGGCAAGGGGGGAAAAGGGAGGGGGGUAACACUUUGGGAACAGGUGGUCCCAGGUCGUUUC: 1.01
CCUGUGCUACACAUCGUAUGUACCGAAUCGGGUUUUUUGGGUUUUUUGGGGUUUUUUGGGGAAAGUAUUAUGUUACGCCGUUCGGAUCUG: -0.707

Excerpt of the above (sample 4):
CUCAAGUCCUGUGCUACACAUCGUAUGUACCGAAUCGGUUUGGUUUGGGUUUGGAAAGUAUUAUGUUACGCCGUUCGGAUCUGCACUUCC: -0.452
AAGUCCUGUGCUACACAUCGUAUGUACCGAAUCGGUUUGGGGUUUGGGGUUUGGGGAAAGUAUUAUGUUACGCCGUUCGGAUCUGCACUU: -0.354
CAAGUCCUGUGCUACACAUCGUAUGUACCGAAUCGGGGUUUGGUUUGGUUUGGGGAAAGUAUUAUGUUACGCCGUUCGGAUCUGCACUUC: -0.207
CACAGACAACACGCACCCACACAGACACAGAGGGAAGGGGUUGGGAUGGGGACAGGGUGCACAGCAGGUCGGGGUAGGACCCCAGCCCCU: 1.91
